{"data": "Results pooled from the literature", "note": "Numbered parts are unrelated; each lists some results of a single study.", "UniProt Q8IW41, sequence (whole entry, looked up)": "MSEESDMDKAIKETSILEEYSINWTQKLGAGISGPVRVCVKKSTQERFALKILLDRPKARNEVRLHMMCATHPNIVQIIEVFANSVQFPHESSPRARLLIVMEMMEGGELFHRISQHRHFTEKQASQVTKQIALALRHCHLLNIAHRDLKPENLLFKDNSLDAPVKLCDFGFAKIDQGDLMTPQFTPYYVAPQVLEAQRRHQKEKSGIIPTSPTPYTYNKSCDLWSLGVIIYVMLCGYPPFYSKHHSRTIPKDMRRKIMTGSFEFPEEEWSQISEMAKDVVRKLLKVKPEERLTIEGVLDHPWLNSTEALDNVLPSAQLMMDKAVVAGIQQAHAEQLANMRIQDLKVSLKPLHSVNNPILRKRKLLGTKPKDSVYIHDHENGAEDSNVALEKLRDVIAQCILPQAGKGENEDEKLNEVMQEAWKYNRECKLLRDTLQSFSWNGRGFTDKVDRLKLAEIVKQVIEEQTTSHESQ", "UniProt Q9BWU1, sequence (whole entry, looked up)": "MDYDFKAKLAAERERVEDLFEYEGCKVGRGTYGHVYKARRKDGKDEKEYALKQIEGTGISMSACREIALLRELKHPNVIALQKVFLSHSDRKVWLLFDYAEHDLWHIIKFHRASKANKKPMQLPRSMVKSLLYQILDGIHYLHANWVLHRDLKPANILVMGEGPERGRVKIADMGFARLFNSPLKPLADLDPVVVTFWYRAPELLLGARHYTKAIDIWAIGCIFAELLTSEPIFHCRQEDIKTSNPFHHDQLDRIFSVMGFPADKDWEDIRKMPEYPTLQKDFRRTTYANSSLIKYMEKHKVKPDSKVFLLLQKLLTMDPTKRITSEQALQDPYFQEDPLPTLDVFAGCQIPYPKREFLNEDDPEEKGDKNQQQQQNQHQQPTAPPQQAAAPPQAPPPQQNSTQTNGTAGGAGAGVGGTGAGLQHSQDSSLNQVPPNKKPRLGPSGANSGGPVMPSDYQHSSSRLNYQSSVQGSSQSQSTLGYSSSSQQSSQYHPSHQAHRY", "UniProt P06239, sequence (whole entry, looked up)": "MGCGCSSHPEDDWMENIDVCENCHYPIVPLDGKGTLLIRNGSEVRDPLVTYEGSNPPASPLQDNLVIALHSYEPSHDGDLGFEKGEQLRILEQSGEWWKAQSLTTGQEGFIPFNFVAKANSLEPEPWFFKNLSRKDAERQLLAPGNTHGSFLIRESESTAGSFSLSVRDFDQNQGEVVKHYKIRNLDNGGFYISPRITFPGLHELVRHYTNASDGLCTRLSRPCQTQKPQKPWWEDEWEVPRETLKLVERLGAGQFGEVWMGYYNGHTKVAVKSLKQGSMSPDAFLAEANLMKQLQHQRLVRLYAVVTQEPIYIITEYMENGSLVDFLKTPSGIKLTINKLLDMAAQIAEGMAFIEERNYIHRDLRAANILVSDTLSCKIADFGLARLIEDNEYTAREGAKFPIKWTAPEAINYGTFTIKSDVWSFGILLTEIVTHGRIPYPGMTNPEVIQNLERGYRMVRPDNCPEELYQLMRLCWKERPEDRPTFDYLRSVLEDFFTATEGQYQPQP", "UniProt P30530, sequence (whole entry, looked up)": "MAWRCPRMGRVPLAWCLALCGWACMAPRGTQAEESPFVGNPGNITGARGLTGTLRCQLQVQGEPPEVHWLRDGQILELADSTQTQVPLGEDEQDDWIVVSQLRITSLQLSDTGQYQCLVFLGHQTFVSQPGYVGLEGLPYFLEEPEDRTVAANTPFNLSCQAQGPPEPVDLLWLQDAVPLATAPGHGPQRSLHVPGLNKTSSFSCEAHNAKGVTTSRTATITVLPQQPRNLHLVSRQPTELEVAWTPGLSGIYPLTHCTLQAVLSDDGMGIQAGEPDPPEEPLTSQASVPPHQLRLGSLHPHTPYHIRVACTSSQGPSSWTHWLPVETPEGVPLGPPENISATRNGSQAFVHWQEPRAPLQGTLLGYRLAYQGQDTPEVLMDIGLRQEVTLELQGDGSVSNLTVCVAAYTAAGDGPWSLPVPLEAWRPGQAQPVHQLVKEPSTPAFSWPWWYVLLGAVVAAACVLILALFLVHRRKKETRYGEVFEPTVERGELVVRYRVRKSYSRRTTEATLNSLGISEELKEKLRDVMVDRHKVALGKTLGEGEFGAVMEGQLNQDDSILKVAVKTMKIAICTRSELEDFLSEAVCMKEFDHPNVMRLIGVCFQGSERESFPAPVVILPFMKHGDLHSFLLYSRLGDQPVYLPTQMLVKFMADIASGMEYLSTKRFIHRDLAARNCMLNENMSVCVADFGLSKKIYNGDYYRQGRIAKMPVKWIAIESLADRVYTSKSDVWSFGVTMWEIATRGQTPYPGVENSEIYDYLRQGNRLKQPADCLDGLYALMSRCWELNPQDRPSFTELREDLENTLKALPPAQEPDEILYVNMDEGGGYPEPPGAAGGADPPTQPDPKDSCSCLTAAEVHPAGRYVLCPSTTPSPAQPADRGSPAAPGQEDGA", "UniProt O95819, sequence (whole entry, looked up)": "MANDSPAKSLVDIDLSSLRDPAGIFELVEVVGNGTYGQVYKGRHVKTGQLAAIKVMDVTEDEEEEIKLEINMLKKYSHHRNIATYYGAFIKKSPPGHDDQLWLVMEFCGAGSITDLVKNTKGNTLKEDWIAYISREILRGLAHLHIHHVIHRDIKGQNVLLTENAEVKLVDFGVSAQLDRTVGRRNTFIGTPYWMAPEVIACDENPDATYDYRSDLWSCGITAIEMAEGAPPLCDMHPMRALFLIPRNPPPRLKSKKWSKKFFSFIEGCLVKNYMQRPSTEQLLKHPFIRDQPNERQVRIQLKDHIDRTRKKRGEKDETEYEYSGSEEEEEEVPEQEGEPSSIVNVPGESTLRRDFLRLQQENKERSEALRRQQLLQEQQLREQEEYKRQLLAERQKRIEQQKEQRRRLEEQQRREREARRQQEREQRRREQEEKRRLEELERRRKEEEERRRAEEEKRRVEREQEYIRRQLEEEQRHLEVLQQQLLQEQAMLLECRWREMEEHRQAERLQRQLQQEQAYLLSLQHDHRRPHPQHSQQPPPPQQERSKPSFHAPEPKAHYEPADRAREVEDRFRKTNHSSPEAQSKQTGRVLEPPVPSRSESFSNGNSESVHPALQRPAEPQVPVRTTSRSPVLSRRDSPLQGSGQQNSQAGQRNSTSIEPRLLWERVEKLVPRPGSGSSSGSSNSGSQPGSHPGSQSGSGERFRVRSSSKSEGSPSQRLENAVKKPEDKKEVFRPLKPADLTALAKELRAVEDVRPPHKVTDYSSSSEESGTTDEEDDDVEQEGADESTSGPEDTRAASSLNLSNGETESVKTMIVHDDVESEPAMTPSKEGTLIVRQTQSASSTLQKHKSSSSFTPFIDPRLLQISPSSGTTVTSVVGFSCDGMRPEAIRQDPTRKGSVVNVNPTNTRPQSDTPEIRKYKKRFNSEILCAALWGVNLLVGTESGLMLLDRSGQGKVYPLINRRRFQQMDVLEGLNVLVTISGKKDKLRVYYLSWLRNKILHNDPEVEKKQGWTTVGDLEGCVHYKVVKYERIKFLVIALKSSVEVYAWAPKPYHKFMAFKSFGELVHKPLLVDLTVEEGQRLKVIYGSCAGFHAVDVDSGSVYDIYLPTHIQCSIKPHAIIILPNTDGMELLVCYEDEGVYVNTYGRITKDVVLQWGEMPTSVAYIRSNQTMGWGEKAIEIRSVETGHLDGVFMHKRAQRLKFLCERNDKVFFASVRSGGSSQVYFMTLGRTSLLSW", "UniProt P54760, sequence (whole entry, looked up)": "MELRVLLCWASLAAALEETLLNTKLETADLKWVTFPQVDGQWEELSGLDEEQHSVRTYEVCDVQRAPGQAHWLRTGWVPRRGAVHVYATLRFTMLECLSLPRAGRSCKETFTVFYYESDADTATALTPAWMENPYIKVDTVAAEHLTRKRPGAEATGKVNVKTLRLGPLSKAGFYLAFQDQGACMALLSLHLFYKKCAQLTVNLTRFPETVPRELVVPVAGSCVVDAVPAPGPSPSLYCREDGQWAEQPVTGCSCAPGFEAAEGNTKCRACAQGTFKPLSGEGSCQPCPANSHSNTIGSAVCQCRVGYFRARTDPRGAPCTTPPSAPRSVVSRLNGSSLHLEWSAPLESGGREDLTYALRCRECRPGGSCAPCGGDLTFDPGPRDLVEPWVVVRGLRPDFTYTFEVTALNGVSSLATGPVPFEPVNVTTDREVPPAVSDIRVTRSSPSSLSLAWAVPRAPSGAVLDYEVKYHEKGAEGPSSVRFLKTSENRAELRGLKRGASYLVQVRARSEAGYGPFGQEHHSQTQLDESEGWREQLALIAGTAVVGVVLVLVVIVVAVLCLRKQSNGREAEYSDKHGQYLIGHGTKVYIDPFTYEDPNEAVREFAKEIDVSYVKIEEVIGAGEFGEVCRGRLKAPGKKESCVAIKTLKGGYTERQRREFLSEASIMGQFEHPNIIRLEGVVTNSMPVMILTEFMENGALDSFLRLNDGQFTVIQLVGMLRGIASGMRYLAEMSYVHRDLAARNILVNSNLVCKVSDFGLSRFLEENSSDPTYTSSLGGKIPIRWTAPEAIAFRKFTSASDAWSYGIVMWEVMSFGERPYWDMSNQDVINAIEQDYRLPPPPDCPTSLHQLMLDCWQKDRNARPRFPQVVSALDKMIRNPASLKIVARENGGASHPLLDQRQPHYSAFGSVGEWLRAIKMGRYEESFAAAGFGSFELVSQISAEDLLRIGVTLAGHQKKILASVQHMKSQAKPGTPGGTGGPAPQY", "UniProt O75716, sequence (whole entry, looked up)": "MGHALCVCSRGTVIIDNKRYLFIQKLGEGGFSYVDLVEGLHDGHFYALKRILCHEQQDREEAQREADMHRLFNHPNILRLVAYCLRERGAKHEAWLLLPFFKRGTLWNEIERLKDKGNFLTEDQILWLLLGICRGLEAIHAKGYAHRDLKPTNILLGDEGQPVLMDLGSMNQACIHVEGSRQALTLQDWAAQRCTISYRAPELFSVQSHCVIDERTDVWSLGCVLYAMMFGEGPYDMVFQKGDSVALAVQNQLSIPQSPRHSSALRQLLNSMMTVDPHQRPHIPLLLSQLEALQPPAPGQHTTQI"}
{"data": "Set 1", "host": "human", "matrix": "microsomes or S9", "tested at": "2 µM", "time": "0.5 h"}
{"Structure (SMILES)": "COCC(=O)Cc1nc(N)nc(Nc2ccc(C)cc2)n1", "remaining compound [%]": 71.9}
{"Structure (SMILES)": "Clc1ncccc1-c1nc2cc3c(cc2c2ccnn12)OCO3", "remaining compound [%]": 55.2}
{"Structure (SMILES)": "COC(=O)c1cc(C)sc1NC(=O)C1CC(=O)NN1C (centres unmarked)", "remaining compound [%]": "> 99"}
{"Structure (SMILES)": "CC(=O)OC(CF)c1cc(F)ccc1S(N)(=O)=O (centres unmarked)", "remaining compound [%]": 50}
{"Structure (SMILES)": "CN/C(=N/c1cc(C)nn1-c1ccccc1)c1ccc(F)cc1", "remaining compound [%]": 28.9}
{"Structure (SMILES)": "NCC1=CCCN(c2nc3c(cc2F)c(=O)c(C(=O)O)cn3-c2ncc(F)cc2Cl)C1", "remaining compound [%]": 45}
{"Structure (SMILES)": "C=CCn1c(=O)n(Cc2cccnc2)c2nc(N)nc(Cl)c21", "remaining compound [%]": 82}
{"Structure (SMILES)": "COc1cc(=O)n(C)cc1C(=O)NC(c1cccnc1)C1CCOCC1 (centres unmarked)", "remaining compound [%]": "> 99"}
{"data": "Set 2", "Compound": "Cc1cncc2cccc(S(=O)(=O)N3CCCN(C(=O)CN)C[C@@H]3C)c12", "read-out": "enzyme activity", "action": "inhibitor", "tested at": "0.5 µM", "baseline": "control"}
{"target": "Tyrosine-protein kinase receptor UFO (AXL, Homo sapiens, UniProt P30530)", "remaining activity [%]": 98.8}
{"target": "Ephrin type-B receptor 4 (EPHB4, Homo sapiens, UniProt P54760)", "remaining activity [%]": 85.1}
{"target": "Serine/threonine-protein kinase 16 (STK16, Homo sapiens, UniProt O75716)", "remaining activity [%]": 97.9}
{"target": "Testis-specific serine/threonine-protein kinase 2 (TSSK2, Homo sapiens, UniProt Q96PF2)", "remaining activity [%]": 99.6}
{"target": "Cyclin-dependent kinase 6, with cyclin D3 (CDK6, Homo sapiens, UniProt Q00534)", "remaining activity [%]": 104}
{"target": "Mitogen-activated protein kinase kinase kinase kinase 4 (MAP4K4, Homo sapiens, UniProt O95819)", "remaining activity [%]": 87.6}
{"data": "Set 3", "Compound": "COc1ccc2c(c1)O[C@H](c1ccc(OC)c(OC)c1)C[C@@H]2NC(=O)C1(c2ccc3c(c2)OC(F)(F)O3)CC1", "tested at": "1 µM"}
{"target": "Proto-oncogene tyrosine-protein kinase receptor Ret (RET, Homo sapiens, UniProt P07949, M918T)", "read-out": "cell-free assay", "method": "competition with immobilised ligand", "remaining binding [%]": 99}
{"target": "MAP kinase-activated protein kinase 5 (MAPKAPK5, Homo sapiens, UniProt Q8IW41)", "read-out": "cell-free assay", "method": "competition with immobilised ligand", "remaining binding [%]": 100}
{"target": "Tyrosine-protein kinase Lck (LCK, Homo sapiens, UniProt P06239)", "read-out": "cell-free assay", "method": "competition with immobilised ligand", "remaining binding [%]": 100}
{"target": "Ribosomal protein S6 kinase alpha-5, C-terminal kinase domain (RPS6KA5, Homo sapiens, UniProt O75582)", "read-out": "cell-free assay", "method": "competition with immobilised ligand", "remaining binding [%]": 100}
{"target": "Platelet-derived growth factor receptor beta (PDGFRB, Homo sapiens, UniProt P09619)", "read-out": "cell-free assay", "method": "competition with immobilised ligand", "remaining binding [%]": 100}
{"target": "Interferon-induced, double-stranded RNA-activated protein kinase (EIF2AK2, Homo sapiens, UniProt P19525)", "read-out": "cell-free assay", "method": "competition with immobilised ligand", "remaining binding [%]": 100}
{"target": "Tyrosine-protein kinase BTK (BTK, Homo sapiens, UniProt Q06187)", "read-out": "cell-free assay", "method": "competition with immobilised ligand", "remaining binding [%]": 92}
{"target": "Cyclin-dependent kinase 19 (CDK19, Homo sapiens, UniProt Q9BWU1)", "method": "competition binding", "remaining binding [%]": 94}
{"data": "Single results of other studies"}
{"Compound": "CC(=O)N[C@@H](Cc1c[nH]c2ccccc12)C(=O)N[C@@H](CCC(=O)C=[N+]=[N-])C(=O)OC(C)C", "host": "C57BL/6 CES1-/- mice, EL4 tumour-bearing", "matrix": "tumour", "dose": "dose not given", "endpoint": "concentration", "value": "not detected"}
{"note": "A few entries again (set 1):"}
{"Structure (SMILES)": "NCC1=CCCN(c2nc3c(cc2F)c(=O)c(C(=O)O)cn3-c2ncc(F)cc2Cl)C1", "remaining compound [%]": 45}
{"Structure (SMILES)": "C=CCn1c(=O)n(Cc2cccnc2)c2nc(N)nc(Cl)c21", "remaining compound [%]": 82}
{"Structure (SMILES)": "COc1cc(=O)n(C)cc1C(=O)NC(c1cccnc1)C1CCOCC1 (centres unmarked)", "remaining compound [%]": "> 99"}
